Measured values from different studies.
Each numbered part is a random draw from the data of one study; scales do not carry over between parts. Changes are numbered by the printed parent chain.
Sequence of UniProt P08588 (whole entry, looked up): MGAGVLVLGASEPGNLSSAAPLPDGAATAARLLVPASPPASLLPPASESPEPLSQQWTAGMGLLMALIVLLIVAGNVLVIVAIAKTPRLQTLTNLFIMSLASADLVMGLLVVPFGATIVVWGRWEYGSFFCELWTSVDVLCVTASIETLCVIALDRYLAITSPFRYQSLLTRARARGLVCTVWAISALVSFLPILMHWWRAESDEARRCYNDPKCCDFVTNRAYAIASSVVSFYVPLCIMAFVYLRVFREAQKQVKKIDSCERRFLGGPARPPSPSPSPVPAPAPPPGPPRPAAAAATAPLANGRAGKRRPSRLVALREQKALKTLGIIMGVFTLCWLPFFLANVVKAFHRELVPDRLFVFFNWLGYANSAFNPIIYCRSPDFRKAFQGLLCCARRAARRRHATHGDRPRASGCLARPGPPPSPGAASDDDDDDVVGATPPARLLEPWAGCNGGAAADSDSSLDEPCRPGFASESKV

Series 1
Target: Sodium-dependent noradrenaline transporter (SLC6A2, Homo sapiens, UniProt P23975)
Sequence of UniProt P23975 (whole entry, looked up): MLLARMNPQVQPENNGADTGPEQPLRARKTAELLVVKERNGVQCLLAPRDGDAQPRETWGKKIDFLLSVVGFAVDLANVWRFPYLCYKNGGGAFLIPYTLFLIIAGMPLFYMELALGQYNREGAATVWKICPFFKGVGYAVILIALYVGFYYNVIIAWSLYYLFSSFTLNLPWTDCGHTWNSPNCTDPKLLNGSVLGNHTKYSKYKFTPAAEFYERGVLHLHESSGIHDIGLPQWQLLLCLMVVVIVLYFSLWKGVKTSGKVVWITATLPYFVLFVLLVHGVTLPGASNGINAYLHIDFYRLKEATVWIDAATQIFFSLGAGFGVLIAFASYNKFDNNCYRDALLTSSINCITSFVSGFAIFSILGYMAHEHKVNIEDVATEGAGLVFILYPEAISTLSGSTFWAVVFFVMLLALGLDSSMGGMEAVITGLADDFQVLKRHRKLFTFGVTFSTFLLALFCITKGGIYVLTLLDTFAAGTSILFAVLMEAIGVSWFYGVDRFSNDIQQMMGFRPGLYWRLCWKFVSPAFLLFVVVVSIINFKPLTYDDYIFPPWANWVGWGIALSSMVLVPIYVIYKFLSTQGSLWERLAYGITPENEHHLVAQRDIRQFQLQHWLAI
Effect on: cell-free assay
Tested at: 10 µM
SMILES | inhibition [%]
CC(C)(C)OC(=O)N1CCCC1CNC1CCC(c2cc(F)ccc2F)(S(=O)(=O)c2ccc(Cl)cc2)CC1 (stereo not drawn) | 50.7
N#Cc1ccc(Nc2ccc3[nH]c(=O)[nH]c3c2)c(Cl)c1 | -2.68
COc1cc(C(=O)O)ncc1C#Cc1ccccc1NS(=O)(=O)c1cccc2c(N(C)C)ccnc12 | -7.14
CS(=O)(=O)c1cc(C2(NC(=O)c3cncc4c3cnn4-c3ccc(F)cc3)CC2)ccn1 | -25
CC1CCN(c2ccnc(NCc3cn(C)cn3)n2)CC1 | 75.8
Cc1cc(Nc2nccc(C)n2)cc(-c2cnc([C@@]3(O)CC[C@H](C(=O)O)C(C)(C)C3)s2)c1 | -24.3
CCOc1cc(N2C3COCC2CN(C(=O)[C@H]2C[C@H](O)CN2c2ccc(Cl)cc2)C3)ccc1Cl | 1.24
O=C(N[C@H]1CCCCC/C=C\C2C[C@@]2(C(=O)O)NC(=O)[C@@H]2C[C@@H](Oc3ccncc3)CN2C1=O)OC1CCCC1 (stereo partly drawn) | -6.94
Cn1nc(C(F)(F)F)cc1-c1cnc(N2CCc3cc(S(=O)(=O)Nc4c(F)cc(Cl)cc4F)cc(N4CCCC4=O)c32)nc1 | 5.69
Nc1nc(NCc2ccccc2)nc(-c2ccccc2CO)n1 | 32.1
C[C@H](NC(=O)Nc1cc2[nH]ncc2c(CO)n1)c1ccccn1 | 25.4
COCCOc1nc(-c2ccc(Cl)nc2)nc2c1CN(C(=O)c1ncn3ccccc13)CC2 | -6.81
Cc1c(C(=O)O)cc(-c2ccc(C3CCNCC3)cc2)c2ccc(-c3ccc(C(F)(F)F)cc3)cc12 | 11.2

Series 2
Target: UDP-N-acetylglucosamine--peptide N-acetylglucosaminyltransferase 110 kDa subunit (OGT, Homo sapiens, UniProt O15294)
Sequence of UniProt O15294 (whole entry, looked up): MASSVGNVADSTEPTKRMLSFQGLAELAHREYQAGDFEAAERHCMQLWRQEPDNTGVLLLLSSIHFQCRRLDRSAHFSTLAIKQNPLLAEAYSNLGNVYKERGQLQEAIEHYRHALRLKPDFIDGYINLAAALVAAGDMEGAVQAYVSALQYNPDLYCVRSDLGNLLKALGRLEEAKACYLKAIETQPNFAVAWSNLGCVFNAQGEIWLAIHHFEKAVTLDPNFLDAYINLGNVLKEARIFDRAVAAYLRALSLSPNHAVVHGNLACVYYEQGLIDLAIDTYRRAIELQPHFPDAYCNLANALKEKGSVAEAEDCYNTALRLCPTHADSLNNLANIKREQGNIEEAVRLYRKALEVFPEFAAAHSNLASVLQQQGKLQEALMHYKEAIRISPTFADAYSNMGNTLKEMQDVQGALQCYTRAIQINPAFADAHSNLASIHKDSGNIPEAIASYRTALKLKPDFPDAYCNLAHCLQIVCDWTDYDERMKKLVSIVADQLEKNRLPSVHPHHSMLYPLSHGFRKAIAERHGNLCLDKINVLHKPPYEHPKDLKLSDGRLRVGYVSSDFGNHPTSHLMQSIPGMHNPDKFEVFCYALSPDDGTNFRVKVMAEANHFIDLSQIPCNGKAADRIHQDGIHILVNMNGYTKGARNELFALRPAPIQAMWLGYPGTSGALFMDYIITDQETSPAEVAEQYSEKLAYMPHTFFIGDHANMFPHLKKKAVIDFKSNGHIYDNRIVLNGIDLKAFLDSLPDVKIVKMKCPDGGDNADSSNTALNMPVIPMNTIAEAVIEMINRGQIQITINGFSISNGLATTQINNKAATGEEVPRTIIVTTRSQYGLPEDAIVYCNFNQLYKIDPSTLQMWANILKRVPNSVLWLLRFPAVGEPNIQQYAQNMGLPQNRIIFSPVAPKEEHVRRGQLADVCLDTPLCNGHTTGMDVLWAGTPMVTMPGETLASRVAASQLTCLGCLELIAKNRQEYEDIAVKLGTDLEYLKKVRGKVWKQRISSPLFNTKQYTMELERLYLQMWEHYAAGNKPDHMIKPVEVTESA
Effect on: binding
Method: phage display NGS
Form: peptide
Tested at: concentration not given
Notes: normalized abundance
Reference: input library
Molecule | enrichment fold change
HDSNWWTDHTWKHH | 4.86
SMAWHHPHGYHWPQA | 5
SYFPVYQIQSFYPVT | 9.94
RFFQPAYQIMPQSYR | 4.25
MRTEHIYPPVYTITY | 6.57
GDQSYRPIYPIQYYK | 13.5
RVNHHWGFNTHTYTA | 4.86
HSDPTGYLHHHHFL | 4.39

Series 3
Target: CCND2, cyclin fold, Cln2 fusion (human)
Method: yeast growth competition, sequencing
Sample: yeast
Notes: weak parent motif
Reference: not given
Reading: higher = stronger binding
Starting sequence: viral docking peptide; KGVKRKLFAEDSS
Variant | normalised enrichment score
KYVKRKLFAEDSS [G2Y] | 0.0835
KGVKRKLFAEDMS [S12M] | 0.141
KGVKRKLFGEDSS [A9G] | 0.114
KGVKRKLPAEDSS [F8P] | 0.101
KGVKRKLKAEDSS [F8K] | 0.17
KGVKRQLFAEDSS [K6Q] | 0.279
KGKKRKLFAEDSS [V3K] | 0.23
KGVKEKLFAEDSS [R5E] | 0.0902

Single results of other studies
Compound | target | mode | measurement | value
c1cc(N2CCNCC2)c2cnccc2c1 | Beta-1 adrenergic receptor (ADRB1, Homo sapiens, UniProt P08588) | agonist | EC50 | ≥ 100 µM

A few entries again (series 2):
Molecule | enrichment fold change
SMAWHHPHGYHWPQA | 5
RVNHHWGFNTHTYTA | 4.86
RFFQPAYQIMPQSYR | 4.25
